Measurements of several laboratories.
Compare with care: the assays were run in different laboratories. Values joined by “and” are separate records of one study, mostly repeats; a detail may differ. ± marks the error that the study gave.

For CO[C@H]1C=C[C@@H](OC(=O)c2ccccc2)[C@H](O)[C@@]1(O)COC(=O)c1ccccc1, the viability was 77.1% (A549; cell growth or viability, MTT; 100 µg/mL).
For CCC1C=CC2CCN(C(=O)C3CCC4C=CC5(CCCN5C(=O)C(Cc5ccccc5Cl)NC(C)=O)C(=O)N43)C2C(=O)N1CC(=O)OC (stereo not shown), viability read “not toxic” (MDA-MB-231; 180 µM, 24 h).
For O=CCNCCOn1c(=O)n(OCCNCCO)c(=O)n(OCCNCCOn2c(=O)n(OCCNCCO)c(=O)n(OCCNCCO)c2=O)c1=O, the viability was 38.2% (HUVEC; cell growth or viability, MTT; 25 µg/mL, 48 h).
With CC(=O)OC[C@H]1O[C@@H]([Se]C(C)=O)[C@H](OC(C)=O)[C@@H](OC(C)=O)[C@@H]1OC(C)=O the viability was 104 ± 19.6% (THP-1 macrophages (PMA-differentiated); WST-1; 10 µM, 24 h).
For Cc1ccc(-n2cc(CSc3nc4ccccc4n3Cc3cn(-c4ccc(C)cc4)nn3)nn2)cc1, the viability was 16.4% (HEK293; MTT; 125 ppm).
For COc1ccc(Cn2cc(CO[C@@H]3O[C@H]4[C@H](OC[C@H]4O)[C@H]3N=[N+]=[N-])nn2)cc1, viability read “not toxic” (Huh-7; cytotoxicity, CellTiter-Glo; up to 30 µM, 72 h).
With CC[C@H](C)[C@@H](C(=O)N[C@@H](Cc1ccc(O)cc1)C(=O)N1CCC[C@H]1C(=O)N[C@@H](Cc1ccccc1)C(=O)O)n1cc(C(Cc2ccc(O)cc2)NC(=O)[C@@H](NC(=O)[C@H](CCCNC(=N)N)NC(=O)[C@@H](N)CC(=O)O)C(C)C)nn1 (stereo partly shown) the viability was 74.4% (Caco-2; cell growth or viability, MTT; 100 µM, 48 h).
CN1CCCNC(=O)c2cccc(c2)C(=O)NCCCN(C)CCCNc2cccc3c2C(=O)c2cccc(c2C3=O)NCCC1 gave a viability of 17.5% (NHEK; CCK-8; 15 µM, 48 h; baseline: untreated).
CCOC(=O)C1CC(C)C2C=CC3CCN(C(=O)C4CCC5C=CC6(CCCN6C(=O)C(Cc6ccccc6Cl)NC(C)=O)C(=O)N54)C3C(=O)N12 (stereo not shown): viability “not toxic” (MDA-MB-231; 180 µM, 24 h).
The viability of O=C(O)c1c(O)cc(O[C@@H]2O[C@H](CO)[C@@H](O)[C@H](O)[C@H]2O)cc1/C=C/c1ccccc1 is reported as greater than 50% (WI-38; cell growth or viability, crystal violet; 50 µM, 48 h).
The viability of CC(=O)OC[C@H]1O[C@@H]([Se]C(=O)c2ccc([N+](=O)[O-])cc2)[C@H](OC(C)=O)[C@@H](OC(C)=O)[C@@H]1OC(C)=O is reported as 22.3 ± 17.5% (THP-1 macrophages (PMA-differentiated); WST-1; 50 µM, 24 h).
With c1cc2nc(c1)-c1cccc(n1)CCCc1ccc(cc1)OCCCCCCOc1ccc(cc1)CCC2 the viability was 52.5% (Caco-2; cell growth or viability, MTT; 200 µM, 48 h).
CC(=O)OC[C@H]1O[C@@H]([Se]SC[C@H]2O[C@@H]3OC(C)(C)O[C@@H]3[C@H]3OC(C)(C)O[C@H]32)[C@H](OC(C)=O)[C@@H](OC(C)=O)[C@@H]1OC(C)=O has a viability of 0.9 ± 0.9% (THP-1 macrophages (PMA-differentiated); WST-1; 50 µM, 24 h).
The viability of CCc1c(-c2ccc3[nH]ncc3c2)cnc(N)c1-c1ccc(O)cc1 is reported as 102% and 99.9% (CHP-212; SRB; 0.7812 µM).
The viability of COC1OC(C)C(OS(=O)(=O)O)C(OC2OC(C)C(OS(=O)(=O)O)C(OC3OC(C)C(OS(=O)(=O)O)C(OC4OC(C)C(OS(=O)(=O)O)C(OC5OC(C)C(OS(=O)(=O)O)C(OC6OC(C)C(OS(=O)(=O)O)C(OC7OC(C)C(OS(=O)(=O)O)C(OC8OC(C)C(OS(=O)(=O)O)C(OS(=O)(=O)O)C8OS(=O)(=O)O)C7OS(=O)(=O)O)C6OS(=O)(=O)O)C5OS(=O)(=O)O)C4OS(=O)(=O)O)C3OS(=O)(=O)O)C2OS(=O)(=O)O)C1OS(=O)(=O)O (stereo not shown) is reported as 87.6% and 107% and 100% (NIH 3T3; CCK-8; concentration not given, 24 h, high concentration; baseline: untreated cells).
COc1ccc(Cn2cc(CCO[C@@H]3O[C@H]4[C@H](OC[C@H]4O)[C@H]3O)nn2)cc1 — result for viability: “not toxic” (HPAF-II; cytotoxicity, CellTiter-Glo; up to 30 µM, 72 h).
For COC1OC(C)C(OS(=O)(=O)O)C(OC2OC(C)C(OS(=O)(=O)O)C(OC3OC(C)C(OS(=O)(=O)O)C(OC4OC(C)C(OS(=O)(=O)O)C(OC5OC(C)C(OS(=O)(=O)O)C(OC6OC(C)C(OS(=O)(=O)O)C(OC7OC(C)C(OS(=O)(=O)O)C(OC8OC(C)C(OS(=O)(=O)O)C(OC9OC(C)C(OS(=O)(=O)O)C(OC%10OC(C)C(OS(=O)(=O)O)C(OS(=O)(=O)O)C%10OS(=O)(=O)O)C9OS(=O)(=O)O)C8OS(=O)(=O)O)C7OS(=O)(=O)O)C6OS(=O)(=O)O)C5OS(=O)(=O)O)C4OS(=O)(=O)O)C3OS(=O)(=O)O)C2OS(=O)(=O)O)C1OS(=O)(=O)O (stereo not shown), the viability was 111% and 90.8% and 92.3% (NIH 3T3; CCK-8; concentration not given, 24 h, low concentration; baseline: untreated cells).
With COc1cc(Oc2c(O)cc(C)c(Br)c2OC)c(C(=O)O)c(C)c1O the viability was 101 ± 2.2% (A549; MTT; 10 or 50 µM, 48 h).
The viability of COC1OC(C)C(OC2OC(C)C(OS(=O)(=O)O)C(OC3OC(C)C(OC4OC(C)C(OS(=O)(=O)O)C(OC5OC(C)C(OC6OC(C)C(OS(=O)(=O)O)C(OC7OC(C)C(OS(=O)(=O)O)C(OS(=O)(=O)O)C7OS(=O)(=O)O)C6OS(=O)(=O)O)C(OS(=O)(=O)O)C5OS(=O)(=O)O)C4OS(=O)(=O)O)C(OS(=O)(=O)O)C3OS(=O)(=O)O)C2OS(=O)(=O)O)C(OS(=O)(=O)O)C1OS(=O)(=O)O (stereo not shown) is reported as 84.6% and 98.6% and 95% (NIH 3T3; CCK-8; concentration not given, 24 h, high concentration; baseline: untreated cells).
C=C(C)[C@H]1Cc2c(cc(O)c3c2O[C@@H]2COc4cc(OC)c(OC)cc4[C@@H]2C3=O)O1 has a viability of 55.1% (A549; cell growth or viability, MTT; 100 µg/mL).
With COC1OC(C)C(OC2OC(C)C(O)C(OC3OC(C)C(OC4OC(C)C(O)C(OC5OC(C)C(OC6OC(C)C(O)C(OC7OC(C)C(OC8OC(C)C(O)C(OS(=O)(=O)O)C8OS(=O)(=O)O)C(OS(=O)(=O)O)C7OS(=O)(=O)O)C6OS(=O)(=O)O)C(OS(=O)(=O)O)C5OS(=O)(=O)O)C4OS(=O)(=O)O)C(OS(=O)(=O)O)C3OS(=O)(=O)O)C2OS(=O)(=O)O)C(OS(=O)(=O)O)C1OS(=O)(=O)O (stereo not shown) the viability was 100% and 92.2% and 99.7% (NIH 3T3; CCK-8; concentration not given, 24 h, medium concentration; baseline: untreated cells).
CC(=O)OC[C@H]1O[C@@H]([Se]c2ccc([N+](=O)[O-])cc2[N+](=O)[O-])[C@H](OC(C)=O)[C@@H](OC(C)=O)[C@@H]1OC(C)=O gave a viability of 2.3 ± 0.5% (THP-1 macrophages (PMA-differentiated); WST-1; 50 µM, 24 h).

A few entries again:
For O=CCNCCOn1c(=O)n(OCCNCCO)c(=O)n(OCCNCCOn2c(=O)n(OCCNCCO)c(=O)n(OCCNCCO)c2=O)c1=O, the viability was 38.2% (HUVEC; cell growth or viability, MTT; 25 µg/mL, 48 h).
With CC(=O)OC[C@H]1O[C@@H]([Se]C(C)=O)[C@H](OC(C)=O)[C@@H](OC(C)=O)[C@@H]1OC(C)=O the viability was 104 ± 19.6% (THP-1 macrophages (PMA-differentiated); WST-1; 10 µM, 24 h).
For Cc1ccc(-n2cc(CSc3nc4ccccc4n3Cc3cn(-c4ccc(C)cc4)nn3)nn2)cc1, the viability was 16.4% (HEK293; MTT; 125 ppm).
